Published values pooled from the literature.
A part holds a random share of what one study measured. Changes are numbered by the printed parent chain.

Block 1
Target: ABI1, truncated, D143A, DHFR fusion (Arabidopsis thaliana)
Technique: DHFR PCA, deep sequencing
Medium: yeast
Notes: methotrexate growth selection, single substitutions
With: (+)-ABA 710 µM
Reference: wild-type fitted maximum
Direction: higher = stronger binding
Quantity: relative binding score
Starting sequence: PYL1, truncated, DHFR fusion (Arabidopsis thaliana); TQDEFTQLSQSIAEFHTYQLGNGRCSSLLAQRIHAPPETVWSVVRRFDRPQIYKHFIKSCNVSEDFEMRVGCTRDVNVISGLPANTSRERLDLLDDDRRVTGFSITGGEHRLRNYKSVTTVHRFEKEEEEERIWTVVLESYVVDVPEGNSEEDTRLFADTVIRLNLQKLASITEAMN; partner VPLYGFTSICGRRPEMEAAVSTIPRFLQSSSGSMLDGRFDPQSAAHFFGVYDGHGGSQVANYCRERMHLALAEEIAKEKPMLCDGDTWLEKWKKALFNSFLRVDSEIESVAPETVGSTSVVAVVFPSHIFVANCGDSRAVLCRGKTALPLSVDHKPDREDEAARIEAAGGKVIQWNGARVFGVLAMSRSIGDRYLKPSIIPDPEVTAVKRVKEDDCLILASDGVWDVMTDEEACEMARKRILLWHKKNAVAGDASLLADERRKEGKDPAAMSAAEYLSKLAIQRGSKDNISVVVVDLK
D96A: 75.2%
T6E: 114%
R49W: 75.9%
R24A: 97%
S140L: -1.94%
I33A: 69.4%
T119I: 95.2%
E152Y: 93.5%
E152H: 98.9%
V137Q: 4.34%
V136A: 87.8%
E67S: 102%
I105T: 98.6%
E64H: 106%
L169K: 1.87%
S9W: 93%
L166R: 0.212%
A35E: 52.1%
Q167Y: 78.2%
Y115L: 71.4%
N85I: 103%

Block 2
Target: UBE2E1 UBC core domain (UniProt P51965)
Sequence of UniProt P51965 (whole entry, looked up): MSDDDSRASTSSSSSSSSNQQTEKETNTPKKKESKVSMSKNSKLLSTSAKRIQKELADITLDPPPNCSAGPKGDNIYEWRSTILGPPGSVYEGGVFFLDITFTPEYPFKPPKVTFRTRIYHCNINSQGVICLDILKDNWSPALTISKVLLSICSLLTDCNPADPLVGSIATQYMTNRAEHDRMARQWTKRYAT
Technique: yeast two-hybrid
Medium: yeast
Notes: mostly zero background
Reference: not given
Direction: higher = stronger interaction
Quantity: lacZ reporter activity
B1: RNF182 RING domain (UniProt Q8N6D2); chain AESQASDELECKICYNRYNLKQRKPKVLECCHRVCAKCLYKIIDFGDSPQGVIVCPFCRFETCLPDDEV
B2: ZMYND11 RING domain (UniProt Q15326); chain DEIDWETENHDWYCFECHLPGEVLICDLCFRVYHSKCLSDEFRLRDSSSPWQCPVCRSIKKKNTNKQEM
B3: BFAR RING domain (UniProt Q9NZS9); chain GPQISVSEFSCHCCYDILVNPTTLNCGHSFCRHCLALWWASSKKTECPECREKWEGFPKVS
B4: MARCHF1 RING domain (UniProt Q8TCQ1); chain TAPRSQSRLSVCPSTQDICRICHCEGDEESPLITPCRCTGTLRFVHQSCLHQWIKSSDTRCCELCKYDFIMETKLKPLRKWE
B5: RING1 RING domain (UniProt Q06587); chain SPRSLHSELMCPICLDMLKNTMTTKECLHRFCSDCIVTALRSGNKECPTCRKKLVSKRSLR
B1 (RNF182 RING domain): 0
ASPKIFQKTKCSICNSALELPSVHFLCGHSFHQHCFESYSESDADCPTCLPENRKVMDMI (VPS11 RING domain (UniProt Q9H270)): 0
B2 (ZMYND11 RING domain): 0
B3 (BFAR RING domain): 0
B4 (MARCHF1 RING domain): 0
ASEEEFQFLRCQQCQAEAKCPKLLPCLHTLCSGCLEASGMQCPICQAPWPLGADTP (PML RING domain (UniProt P29590)): 0
EIKEYKARLTCPCCNTRKKDAVLTKCFHVFCFECVRGRYEARQRKCPKCNAAFGAHDFHR (RNF40 RING domain (UniProt O75150)): 0
LVKDFNPYITCYICKGYLIKPTTVTECLHTFCKTCIVQHFEDSNDCPRCGNQVHETNPLE (PCGF5 RING domain (UniProt Q86SE9)): 0
FAEQPSVKLCCQLCCSVFKDPVITTCGHTFCRRCALKSEKCPVDNVKLTVVVNNI (TRAF7 RING domain (UniProt Q6Q0C0)): 0
FDPPLESKYECPICLMALREAVQTPCGHRFCKACIIKSIRDAGHKCPVDNEILLENQLFP (TRAF6 RING domain (UniProt Q9Y4K3)): 0
B5 (RING1 RING domain): 0
DDVLTKDAGECVICLEELLQGDTIARLPCLCIYHKSCIDSWFEVNRSCPEHPAD (ZNRF1 RING domain (UniProt Q8ND25)): 10000

Block 3
Target: Centromere-binding protein 1, full length, His-tagged (CBF1, Saccharomyces cerevisiae, UniProt P17106, residues 1-351)
Sequence of UniProt P17106 (whole entry, looked up): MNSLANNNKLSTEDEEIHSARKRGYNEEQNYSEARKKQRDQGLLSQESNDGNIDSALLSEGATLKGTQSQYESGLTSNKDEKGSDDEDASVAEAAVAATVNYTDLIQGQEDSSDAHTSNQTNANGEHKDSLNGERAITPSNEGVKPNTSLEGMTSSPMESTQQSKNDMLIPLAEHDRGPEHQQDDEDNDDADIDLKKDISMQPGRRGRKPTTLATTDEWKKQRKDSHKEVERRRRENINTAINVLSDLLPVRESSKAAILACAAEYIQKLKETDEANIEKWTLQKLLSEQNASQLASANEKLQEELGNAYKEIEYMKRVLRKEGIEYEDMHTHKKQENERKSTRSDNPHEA
Technique: competition protein-binding microarray
Form: double-stranded DNA, one strand shown
Medium: in vitro
Tested at: 2 µM
Notes: whole 60-bp probe, lowest competitor level
With: Pho4 competitor, 0.05 µM
Direction: higher = stronger binding
Quantity: fluorescence intensity
AAAGCGGTAATTTGCATTGTGGGTGCAGATATCTATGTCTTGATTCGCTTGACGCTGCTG: 82.7 a.u.
CTTAATTGCCGGCTCCTCGTGGTGAGATAAAATGAAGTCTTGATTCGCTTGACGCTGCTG: 99.1 a.u.
AGGCGCGCGCAAAAGCACGCACGGATTGACCGGAGCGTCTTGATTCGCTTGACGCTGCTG: 80.1 a.u.
GAAGGAGGACTTTCCCTTGTGACAGTCTTGACTTTTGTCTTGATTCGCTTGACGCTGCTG: 73.7 a.u.
CGTCCTAGTGATTGTCACTTCACTTCCATGAGGAAGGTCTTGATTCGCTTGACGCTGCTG: 75.1 a.u.
GCTTTCGATTTTCCTCACGTGACGGCGTTTCTTGGCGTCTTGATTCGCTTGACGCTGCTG: 7040 a.u.
AAGATGAGCTAAACTCTCGTGGATTAAATTTAAGCGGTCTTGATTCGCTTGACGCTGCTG: 106 a.u.
TGCGCAACAACTTGTTGGGTGGGTGTATGTCTAGAAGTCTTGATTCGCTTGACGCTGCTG: 51.2 a.u.
TGCGCAACAACTTTTCACGTGATATTATGTCTAGAAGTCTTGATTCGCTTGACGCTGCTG: 3290 a.u.
CTTCTGTAAATTTGCTTCGTGGGTGGACGCGCCCCGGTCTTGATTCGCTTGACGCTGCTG: 85 a.u.
ATTTGACAGCATTTTCACGTGCAAACTGGAAGGAATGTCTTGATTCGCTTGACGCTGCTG: 1270 a.u.
CTAACGAAGGTTTGTTTGGTGGGTGACAAGCCAAGTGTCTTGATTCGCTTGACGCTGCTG: 66.8 a.u.
TGCGCAACAACTTGTATGGTGGGTGTATGTCTAGAAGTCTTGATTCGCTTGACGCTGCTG: 66.9 a.u.
GGGGAGGATGATTTTCATGTGCGAATATCTACCGGCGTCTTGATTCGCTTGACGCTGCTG: 103 a.u.
CCAGATCCGGATCCAAACATGACAATCGAAGATTATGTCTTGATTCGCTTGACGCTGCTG: 83 a.u.
TAGGGCTACCTTTGTCATGCCCAGGAAAACCGGATTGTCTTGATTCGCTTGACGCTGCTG: 60.4 a.u.
AGTATCATAGGGTCCCACGTGCAAAGTCCACCGTCTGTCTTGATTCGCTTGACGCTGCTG: 835 a.u.
GTAGACGCAAACCATCACGTACTTCATTTGAGGTTCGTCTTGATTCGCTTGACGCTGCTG: 101 a.u.
CTTTCCCGATCTTGATAGGTGGGTGTAGCACATTTGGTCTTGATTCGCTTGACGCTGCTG: 77.5 a.u.
CTTCTGTAAATTTTTCACGTGTTTTGACGCGCCCCGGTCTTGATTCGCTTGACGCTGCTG: 962 a.u.
AAAGCGGTAATTTTTCACGTGTTCTCACATATCTATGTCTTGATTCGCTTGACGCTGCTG: 1660 a.u.
AAATTACTAAGTTTTCACGTGCTGTACCCCGTATGAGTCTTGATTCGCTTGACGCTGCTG: 945 a.u.
GCCAGCCGGTGCGGCCACGTGTTGAATCTTGACTTTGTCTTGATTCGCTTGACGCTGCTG: 896 a.u.
GTCTTGTCTCATTGATAAGTGGGTGTCCCCACTTCAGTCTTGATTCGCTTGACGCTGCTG: 63.6 a.u.
TTCTTTAATAAGTTGGTCGTGGGTACCTGCTGTTGCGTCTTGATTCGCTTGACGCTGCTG: 74.9 a.u.

Block 4
Target: RING finger protein unkempt homolog, zinc fingers 1-6, GST-SBP tag (UNK, Homo sapiens, UniProt Q9C0B0, residues 30-357)
Sequence of UniProt Q9C0B0 (30-357, looked up): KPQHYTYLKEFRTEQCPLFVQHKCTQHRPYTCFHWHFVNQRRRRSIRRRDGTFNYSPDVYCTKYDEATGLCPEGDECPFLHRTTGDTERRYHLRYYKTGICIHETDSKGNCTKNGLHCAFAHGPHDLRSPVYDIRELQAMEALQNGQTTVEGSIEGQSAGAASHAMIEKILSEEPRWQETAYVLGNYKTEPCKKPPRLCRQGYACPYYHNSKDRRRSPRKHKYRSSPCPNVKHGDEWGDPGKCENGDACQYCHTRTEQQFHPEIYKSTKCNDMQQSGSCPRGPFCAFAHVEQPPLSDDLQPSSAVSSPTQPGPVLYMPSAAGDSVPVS
Technique: RNA Bind-n-Seq
Form: RNA
Medium: in vitro
Tested at: not given
Notes: RNA with constant flanks, human-mouse chimeric sites, ends assumed
Reference: input RNA pool
Direction: higher = stronger binding
Quantity: bound/input enrichment
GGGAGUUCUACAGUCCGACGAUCCACAGAGCAGCACCUACCCCCUCCUCCUUUCCACACCUGCAAACUCUUUUACUUGGGCUGAAUAUUUAGUGUAAUUAACAUCGCAGCUUGAGGGCUCCUGUGGCAAAAUACCCGGAUAAACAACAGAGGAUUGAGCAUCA: 1.44 ratio
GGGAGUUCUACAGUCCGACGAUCUGGCGCCUGCGCUCCCCGUUUUUAAAUUUAAGUGUAUAAGAUGUAUAUACAUGUAUUUACAAUUGAGCUUUUGUUACAUAAUGCUGAAAUGCUACUGGAGAUUAUGAAAAAUGUUUCAAUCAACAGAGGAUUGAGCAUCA: 0.246 ratio
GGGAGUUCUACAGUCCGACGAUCCUCAGAGACGUGGCAUAUCAGUAUGUGAAAAAGGGGGCUCGUAUAUUUGUGGAAGGGAAAGUGGACUAUGGCGAGUACAUGGAUAAAAACAAUGUGAGGCGGCAAGCAACAACAAUCAUACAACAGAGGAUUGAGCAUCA: 0.315 ratio
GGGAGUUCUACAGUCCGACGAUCAAUUUCCGCAACUGUUUUUUAGACAUUCACAUCAGACUUACAGAGCACCUGGCCACAUUCUAGGUUUGAAUUAUUUCUCAGCUAUGGAUAUGAUCAAAUGAGAACACUGCUUAACUAAUGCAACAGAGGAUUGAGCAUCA: 0.803 ratio
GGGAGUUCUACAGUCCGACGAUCUGUGAACUGUCUCUUGAGAUCUAAAAACAAGAUGACUUUUCCUGGCACAUAUUUCAAAGCAUAGACUUUGUUGCCUGCUGCUUAUUGUCUAAUUUACAGGGAUAUUUAAUUUUGUCAGGUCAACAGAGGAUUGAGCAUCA: 0.137 ratio
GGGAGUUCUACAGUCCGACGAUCUGUGCAUAUGAUGCUUGAGAUGGUUUUUGCAAAAGCAGAAAUCGCUGCAAGGUAAUCACAAUAGAUAAAAGUGGUAUUUUAAACCUUUGAAAGGAAUGGAUGUAACUGUACGUUGGUACACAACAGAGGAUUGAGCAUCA: 0.472 ratio
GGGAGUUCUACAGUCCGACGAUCCUGUGUGUGCUGAAUAAAUGGCUUGUAAAGAAGUUUUUCCAAGCUGUAACCCAUGCUUCCCUUAGAGUUGCUGCAAAAUGUUCUUCCUAUUGAUGUUUUUAUUUGUUAACUGAAGGUCUCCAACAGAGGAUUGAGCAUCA: 0.297 ratio
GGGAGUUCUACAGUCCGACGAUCCACAGAGCAGCACCUACCCCCUCCUCCUUUCCACACCUGCAAACCCUUUUACUUGGGCUGAAUAUUUAGUGUAAUUACAUCUCAGCUUUGAGGGCUCCCUGUGGCAAUUCCCGGAUUAAACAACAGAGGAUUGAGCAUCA: 0.849 ratio
